Measurements from different studies.
Protocols differ between the studies behind these lines. ± gives the spread as reported.
Tmem97: Sigma intracellular receptor 2 (Tmem97, Rattus norvegicus, UniProt Q5U3Y7)
Sequence of UniProt Q5U3Y7 (whole entry, looked up): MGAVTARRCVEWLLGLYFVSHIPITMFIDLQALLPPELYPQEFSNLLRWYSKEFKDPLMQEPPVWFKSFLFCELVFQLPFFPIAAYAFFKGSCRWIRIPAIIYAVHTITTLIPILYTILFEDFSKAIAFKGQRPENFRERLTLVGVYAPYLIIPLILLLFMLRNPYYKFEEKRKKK
Oprm1: Mu-type opioid receptor (Oprm1, Mus musculus, UniProt P42866)
Slc18a2: Synaptic vesicular amine transporter (Slc18a2, Rattus norvegicus, UniProt Q01827)
Sequence of UniProt Q01827 (whole entry, looked up): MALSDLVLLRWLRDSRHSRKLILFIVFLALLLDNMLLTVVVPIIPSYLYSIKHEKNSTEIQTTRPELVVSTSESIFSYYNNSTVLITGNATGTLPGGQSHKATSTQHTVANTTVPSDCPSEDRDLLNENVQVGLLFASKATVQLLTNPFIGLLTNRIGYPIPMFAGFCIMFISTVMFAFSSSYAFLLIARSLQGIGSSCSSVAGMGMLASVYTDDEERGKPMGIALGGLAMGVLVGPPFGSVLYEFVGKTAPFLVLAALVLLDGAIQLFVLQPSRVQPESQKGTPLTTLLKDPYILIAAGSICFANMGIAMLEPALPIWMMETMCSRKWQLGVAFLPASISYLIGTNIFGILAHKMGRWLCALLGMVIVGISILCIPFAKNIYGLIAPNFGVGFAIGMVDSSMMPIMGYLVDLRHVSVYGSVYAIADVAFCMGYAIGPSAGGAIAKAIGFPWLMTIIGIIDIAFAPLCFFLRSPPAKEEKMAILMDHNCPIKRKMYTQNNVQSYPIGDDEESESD
OXTR: Oxytocin receptor (OXTR, Homo sapiens, UniProt P30559)
Sequence of UniProt P30559 (whole entry, looked up): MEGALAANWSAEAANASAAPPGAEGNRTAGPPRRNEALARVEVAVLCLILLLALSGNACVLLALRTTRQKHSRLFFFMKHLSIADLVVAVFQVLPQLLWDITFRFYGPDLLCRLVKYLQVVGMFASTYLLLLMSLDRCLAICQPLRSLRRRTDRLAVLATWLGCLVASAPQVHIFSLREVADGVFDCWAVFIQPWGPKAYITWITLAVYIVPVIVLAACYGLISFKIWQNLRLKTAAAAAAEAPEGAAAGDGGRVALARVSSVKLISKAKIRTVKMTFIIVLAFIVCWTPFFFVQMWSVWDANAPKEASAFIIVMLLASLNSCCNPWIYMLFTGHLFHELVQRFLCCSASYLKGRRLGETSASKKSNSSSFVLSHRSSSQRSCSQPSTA
HTR2B: 5-hydroxytryptamine receptor 2B (HTR2B, Homo sapiens, UniProt P41595)
Sequence of UniProt P41595 (whole entry, looked up): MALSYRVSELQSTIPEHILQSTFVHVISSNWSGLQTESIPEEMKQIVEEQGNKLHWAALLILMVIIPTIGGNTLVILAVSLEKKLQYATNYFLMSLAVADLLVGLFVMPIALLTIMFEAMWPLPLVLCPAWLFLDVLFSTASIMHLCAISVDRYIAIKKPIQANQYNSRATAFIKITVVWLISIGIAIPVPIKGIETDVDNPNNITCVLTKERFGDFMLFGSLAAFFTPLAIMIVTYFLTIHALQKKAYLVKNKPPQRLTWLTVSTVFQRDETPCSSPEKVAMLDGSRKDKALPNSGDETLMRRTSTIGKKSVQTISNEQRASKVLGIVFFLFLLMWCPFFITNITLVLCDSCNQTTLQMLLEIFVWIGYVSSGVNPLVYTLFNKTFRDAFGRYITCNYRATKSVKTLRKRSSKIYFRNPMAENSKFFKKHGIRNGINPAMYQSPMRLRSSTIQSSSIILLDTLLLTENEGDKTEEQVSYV
NPY4R: Neuropeptide Y receptor type 4 (NPY4R, Homo sapiens, UniProt P50391)
Sequence of UniProt P50391 (whole entry, looked up): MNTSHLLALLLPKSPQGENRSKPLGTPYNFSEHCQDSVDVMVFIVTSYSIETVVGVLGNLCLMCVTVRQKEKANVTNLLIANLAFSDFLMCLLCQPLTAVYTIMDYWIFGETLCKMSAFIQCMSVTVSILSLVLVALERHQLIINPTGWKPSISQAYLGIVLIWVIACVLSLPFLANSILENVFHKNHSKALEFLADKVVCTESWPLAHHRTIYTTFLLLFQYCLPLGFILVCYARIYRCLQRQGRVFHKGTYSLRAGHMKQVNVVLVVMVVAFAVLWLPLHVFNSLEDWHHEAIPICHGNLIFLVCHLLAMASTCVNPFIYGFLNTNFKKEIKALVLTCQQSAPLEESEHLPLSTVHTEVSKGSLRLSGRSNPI
Sequence of UniProt Q60492 (whole entry, looked up): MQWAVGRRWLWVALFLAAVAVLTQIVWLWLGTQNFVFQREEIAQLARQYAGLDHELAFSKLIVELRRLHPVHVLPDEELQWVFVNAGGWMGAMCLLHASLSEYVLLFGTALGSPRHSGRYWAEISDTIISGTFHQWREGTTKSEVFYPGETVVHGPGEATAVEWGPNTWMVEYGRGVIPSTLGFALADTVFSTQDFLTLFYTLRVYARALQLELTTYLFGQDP
Sequence of UniProt P06733 (whole entry, looked up): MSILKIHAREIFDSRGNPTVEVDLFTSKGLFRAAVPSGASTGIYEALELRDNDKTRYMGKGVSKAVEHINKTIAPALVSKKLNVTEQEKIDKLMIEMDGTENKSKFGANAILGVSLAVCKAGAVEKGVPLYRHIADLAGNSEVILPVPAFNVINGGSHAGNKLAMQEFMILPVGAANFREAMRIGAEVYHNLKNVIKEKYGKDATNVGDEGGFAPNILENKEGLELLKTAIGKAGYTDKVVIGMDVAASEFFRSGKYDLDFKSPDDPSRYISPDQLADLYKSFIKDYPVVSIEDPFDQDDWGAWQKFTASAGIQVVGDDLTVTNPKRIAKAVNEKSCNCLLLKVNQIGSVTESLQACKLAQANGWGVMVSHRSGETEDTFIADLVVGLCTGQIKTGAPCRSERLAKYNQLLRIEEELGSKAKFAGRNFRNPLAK
Sequence of UniProt P51451 (whole entry, looked up): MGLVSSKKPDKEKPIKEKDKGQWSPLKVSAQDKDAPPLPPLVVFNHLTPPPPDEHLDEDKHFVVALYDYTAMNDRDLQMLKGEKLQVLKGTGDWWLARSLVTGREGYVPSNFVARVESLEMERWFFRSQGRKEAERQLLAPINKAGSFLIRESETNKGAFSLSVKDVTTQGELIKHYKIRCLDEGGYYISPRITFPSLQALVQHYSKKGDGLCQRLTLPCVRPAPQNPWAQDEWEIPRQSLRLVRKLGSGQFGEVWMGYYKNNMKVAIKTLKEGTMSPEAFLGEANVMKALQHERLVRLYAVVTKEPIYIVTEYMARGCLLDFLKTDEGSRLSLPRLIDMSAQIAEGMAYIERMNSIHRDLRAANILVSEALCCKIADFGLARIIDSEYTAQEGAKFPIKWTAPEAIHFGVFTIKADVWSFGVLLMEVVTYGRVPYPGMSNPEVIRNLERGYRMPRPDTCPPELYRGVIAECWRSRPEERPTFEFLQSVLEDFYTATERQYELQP
Sequence of UniProt P11275 (whole entry, looked up): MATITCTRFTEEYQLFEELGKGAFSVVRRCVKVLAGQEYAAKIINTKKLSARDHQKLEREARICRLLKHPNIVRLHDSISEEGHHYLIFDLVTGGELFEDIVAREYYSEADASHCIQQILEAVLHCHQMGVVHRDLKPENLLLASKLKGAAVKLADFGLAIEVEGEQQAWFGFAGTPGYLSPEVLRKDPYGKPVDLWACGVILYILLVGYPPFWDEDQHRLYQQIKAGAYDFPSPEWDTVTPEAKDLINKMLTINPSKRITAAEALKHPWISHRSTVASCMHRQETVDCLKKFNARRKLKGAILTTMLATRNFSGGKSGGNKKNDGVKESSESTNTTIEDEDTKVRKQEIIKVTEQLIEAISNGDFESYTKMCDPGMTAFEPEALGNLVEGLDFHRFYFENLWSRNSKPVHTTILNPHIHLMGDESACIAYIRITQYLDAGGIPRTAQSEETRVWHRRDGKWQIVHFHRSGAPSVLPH
Sequence of UniProt P09622 (whole entry, looked up): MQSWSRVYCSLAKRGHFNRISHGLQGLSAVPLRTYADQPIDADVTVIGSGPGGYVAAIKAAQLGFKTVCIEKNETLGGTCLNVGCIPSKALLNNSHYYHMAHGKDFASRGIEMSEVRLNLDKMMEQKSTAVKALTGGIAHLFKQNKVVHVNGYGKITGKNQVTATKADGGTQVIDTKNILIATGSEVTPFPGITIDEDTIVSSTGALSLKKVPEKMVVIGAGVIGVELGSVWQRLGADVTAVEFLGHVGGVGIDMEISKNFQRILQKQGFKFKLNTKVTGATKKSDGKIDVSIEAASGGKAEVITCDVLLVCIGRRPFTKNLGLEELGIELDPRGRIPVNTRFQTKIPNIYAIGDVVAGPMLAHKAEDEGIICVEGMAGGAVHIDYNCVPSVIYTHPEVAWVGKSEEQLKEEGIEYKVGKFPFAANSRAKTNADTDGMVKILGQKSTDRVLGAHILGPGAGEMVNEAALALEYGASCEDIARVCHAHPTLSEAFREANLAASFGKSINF
Sequence of UniProt P41146 (whole entry, looked up): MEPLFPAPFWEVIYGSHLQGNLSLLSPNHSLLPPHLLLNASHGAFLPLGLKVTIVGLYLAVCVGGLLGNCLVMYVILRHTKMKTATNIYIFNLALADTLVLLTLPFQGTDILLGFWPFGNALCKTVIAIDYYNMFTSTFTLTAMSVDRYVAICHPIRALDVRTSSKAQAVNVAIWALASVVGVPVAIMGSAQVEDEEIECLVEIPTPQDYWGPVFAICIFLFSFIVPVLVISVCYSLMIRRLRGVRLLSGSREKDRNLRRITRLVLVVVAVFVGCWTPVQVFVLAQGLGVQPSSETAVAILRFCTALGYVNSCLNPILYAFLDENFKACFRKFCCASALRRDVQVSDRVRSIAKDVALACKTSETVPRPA
Sequence of UniProt P0A6M2 (whole entry, unmodified, looked up): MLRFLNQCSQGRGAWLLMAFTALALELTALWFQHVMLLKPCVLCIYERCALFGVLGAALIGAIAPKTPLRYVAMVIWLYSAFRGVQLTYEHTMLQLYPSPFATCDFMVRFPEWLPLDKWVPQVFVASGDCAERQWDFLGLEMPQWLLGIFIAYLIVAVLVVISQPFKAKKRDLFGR

For `CCCC(=O)c1ccc2c(c1)sc(=O)n2CCCCCN1CCCCCC1`, the Ki was 5.7 nM (Tmem97; ligand displacement, radioligand).
With `CNC(=O)C1CCN(c2ccccc2NC(=O)c2ccc(-c3cc(O)ccc3C)c(C)n2)CC1` the Ki was 0.4 nM (BLK (Homo sapiens, UniProt P51451); cell-free assay, TR-FRET).
`Cc1cc(S(=O)(=O)N(C)CC(=O)Nc2ccn(C)c(=O)c2)c2[nH]ncc2c1` has a Ki of 1130 ± 180 nM (DLD (Homo sapiens, UniProt P09622); enzyme activity, inhibitor).
`COC(=O)C1C(OC(c2ccc(Cl)cc2)c2ccc(Cl)cc2)CC2CCC1N2C` (single isomer, unassigned) has a Ki of 6350 nM (SIGMAR1 (Cavia porcellus, UniProt Q60492); radioligand binding; guinea pig; racemate, together with: [3H](+)-pentazocine).
`CC[C@H](C)[C@H](NC(=O)[C@H](CCC(=O)O)NC(=O)[C@H](Cc1ccc(I)cc1)NC(=O)[C@@H](C)NC(=O)[C@@H](N)Cc1ccc(O)cc1)C(=O)N[C@H](C(=O)NCC(N)=O)[C@@H](C)CC` gave a Ki of over 1000 nM (Oprm1; ligand displacement, radioligand; cell membranes).
`CN1C(CCc2ccccc2)CCC1CCc1ccccc1` (centres unmarked) gave a Ki of 270 nM (Slc18a2; transporter uptake, inhibitor, radiometric).
`C/C(=N\OCCCN1CCCCC1)c1ccc(C(F)(F)F)cc1` has a Ki of 200 nM (Tmem97; ligand displacement, radioligand).
With `N=C(N)NCCC[C@H](NC(=O)[C@@H]1CCCN1C(=O)[C@@H]1CSSC[C@H](N)C(=O)N[C@]2(CC[C@@H](c3ccccc3)CC2)C(=O)N[C@@H](Cc2ccccc2)C(=O)N[C@@H](CCC(N)=O)C(=O)N[C@@H](CC(N)=O)C(=O)N1)C(=O)NCC(N)=O` the Ki was 110 ± 26 nM (OXTR; [3H]oxytocin displacement; HEK293 expressing human oxytocin receptor; together with: [3H]oxytocin 2 nM).
The Ki of `O=C(CCCC[C@@H]1SC[C@@H]2NC(=O)N[C@@H]21)NCCCCCCCCN1[C@H]2[C@H](O)[C@@H](O)[C@H](O[C@@H]3OC[C@@H](O)[C@H](O)[C@H]3O)C[C@H]21` (some centres unmarked) is reported as 40 nM (endo-1,4-beta-xylanase (Aspergillus aculeatus, UniProt A0A1L9WG58); covalent inhibitor; pH 5.0, together with: 4MU-β-D-xylobioside 1 mM).
With `CC(C)[C@H]1CC[C@@H](N2CC[C@@](C)(c3cccc(O)c3)[C@@H](C)C2)CC1` the Ki was over 10000 nM (Nociceptin receptor (OPRL1, Homo sapiens, UniProt P41146); ligand displacement, radioligand).
`COc1c(OCCOCCOCCOc2cccc(C(=O)C3CCN(CCc4ccc(F)cc4)CC3)c2OC)cccc1C(=O)C1CCN(CCc2ccc(F)cc2)CC1` has a Ki of 476 nM (HTR2B; ligand displacement, radioligand).
For `Cc1cc(O)c(I)c(C)c1C[C@H](N)C(=O)N[C@H](C)C(=O)N[C@@H](Cc1ccccc1)C(=O)N[C@@H](Cc1ccccc1)C(N)=O`, the Ki was 1 nM (Oprm1; ligand displacement, radioligand; cell membranes).
With `O=C1C(P(=O)(O)O)CCCN1O` (centres unmarked) the Ki was 232 nM (Alpha-enolase (ENO1, Homo sapiens, UniProt P06733); enzyme activity, inhibitor).
For `CC[C@H](C)[C@@H]1NC(=O)[C@H](Cc2ccc(O)cc2)NC(=O)[C@@H](N)Cn2cc(nn2)CCCC[C@@H](C(=O)N2CCC[C@H]2C(=O)N[C@@H](CC(C)C)C(=O)NCC(N)=O)NC(=O)[C@H](CC(N)=O)NC(=O)[C@H](CCC(N)=O)NC1=O`, the Ki was 2800 nM (OXTR; ligand displacement, radioligand; cell membranes).
For `CCCC(=O)c1ccc2c(c1)sc(=O)n2CCCCCCN1CCCCCC1`, the Ki was 2.3 nM (Tmem97; ligand displacement, radioligand).
For `COc1c(OCCOCCOCCOCCOCCOCCOCCOCCOc2cccc(C(=O)C3CCN(CCc4ccc(F)cc4)CC3)c2OC)cccc1C(=O)C1CCN(CCc2ccc(F)cc2)CC1`, the Ki was 238 nM (HTR2B; ligand displacement, radioligand).
`O=c1c(Cl)c(Cl)cnn1Cc1ccccc1Cl` has a Ki of 0.8 nM (Disulfide bond formation protein B (Escherichia coli, UniProt P0A6M2, C49V/C8A); enzyme activity, inhibitor).
`[N-]=[N+]=NCc1cc(COc2ccc(C(O)CCC(=O)O)cc2)cc(N=[N+]=[N-])c1` (centres unmarked) has a Ki of 66 nM (Calcium/calmodulin-dependent protein kinase type II subunit alpha, hub domain (Rattus norvegicus, UniProt P11275)).
For `CC[C@H](C)[C@H](NC(=O)[C@H](CCC(=O)O)NC(=O)[C@H](Cc1ccc(Cl)cc1)NC(=O)[C@@H](C)NC(=O)[C@@H](N)Cc1ccc(O)cc1)C(=O)N[C@H](C(=O)NCC(N)=O)[C@@H](C)CC`, the Ki was over 1000 nM (Oprm1; ligand displacement, radioligand; cell membranes).
`CCCc1ccc2c(c1)sc(=O)n2CCCCCN1CCCCCC1` gave a Ki of 1.6 nM (Tmem97; ligand displacement, radioligand).
For `CCn1nc(-c2cccs2)nc2c(=O)n(C)c(=O)nc1-2`, the Ki was 21500 nM (TPR (Trypanosoma brucei brucei, UniProt P39051); enzyme activity, inhibitor; together with: NADPH varied, fixed trypanothione disulfide).
The Ki of `O=c1oc2cc(O)c(O)cc2c2oc3cc4c(cc3c12)OCO4` is reported as 42600 nM (Genome polyprotein, NS5B polymerase (Hepatitis C virus genotype 1b, UniProt P26663); RNA polymerase activity, competitive inhibitor; together with: poly rA/U12 varied, UTP 25 µM).
The Ki of `O=c1sc2ccccc2n1CCCN1CCCCCC1` is reported as 177 nM (Tmem97; ligand displacement, radioligand).
For `CC[C@H](C)[C@@H]1NC(=O)[C@H](Cc2ccc(O)cc2)NC(=O)[C@@H](N)Cc2cn(nn2)C[C@@H](C(=O)N2CCC[C@H]2C(=O)N[C@@H](CC(C)C)C(=O)NCC(N)=O)NC(=O)[C@H](CC(N)=O)NC(=O)[C@H](CCC(N)=O)NC1=O`, the Ki was 31000 nM (OXTR; ligand displacement, radioligand; cell membranes).
`CCCc1ccc2c(c1)sc(=O)n2CCCN1CCCCCC1` gave a Ki of 17.2 nM (Tmem97; ligand displacement, radioligand).
`CC[C@H](C)[C@@H]1NC(=O)[C@H](Cc2ccc(O)cc2)NC(=O)[C@@H](N)CCn2cc(nn2)C[C@@H](C(=O)N2CCC[C@H]2C(=O)N[C@@H](CC(C)C)C(=O)NCC(N)=O)NC(=O)[C@H](CC(N)=O)NC(=O)[C@H](CCC(N)=O)NC1=O` gave a Ki of 4000 nM (OXTR; ligand displacement, radioligand; cell membranes).
With `O=c1sc2ccccc2n1CCCCCN1CCCCCC1` the Ki was 2.5 nM (Tmem97; ligand displacement, radioligand).
`C[C@H]1[C@H]2CCC[C@]1(c1cccc(O)c1)CCN2CCc1ccccc1` gave a Ki of 0.826 nM (Oprm1; ligand displacement, radioligand; cell membranes).
`CC(C)(COP(=O)(O)OP(=O)(O)OC[C@H]1O[C@@H](n2cnc3c(N)ncnc32)[C@H](O)[C@@H]1OP(=O)(O)O)[C@@H](O)C(=O)NCCC(=O)NCCSCC(=O)N[C@@H](CO)C(=O)NCC(=O)N[C@@H](CCCNC(=N)N)C(=O)NCC(N)=O` gave a Ki of 4.4 ± 0.85 nM (NAA40 (Homo sapiens, UniProt Q86UY6); inhibitor).
For `CCCCc1ccc2c(c1)sc(=O)n2CCCCN1CCCCCC1`, the Ki was 4.4 nM (Tmem97; ligand displacement, radioligand).
With `CC(=O)N[C@@H](CCCNC(=N)N)C(=O)N[C@@H](Cc1ccc(O)cc1)C(=O)N[C@@H](CCCNC(=N)NC(=O)NCCCCN)C(=O)N[C@@H](CC(C)C)C(=O)N[C@@H](CCCNC(=N)N)C(=O)N[C@@H](Cc1ccc(O)cc1)C(=O)O` the Ki was over 5000 nM (NPY4R; ligand displacement, radioligand).
`CN1CCN(C(=O)N[C@@H](Cc2ccccc2)C(=O)N[C@H](/C=C/S(=O)(=O)c2ccccc2)CCc2ccccc2)CC1` has a Ki of 2 nM (Cathepsin S (CTSS, Homo sapiens, UniProt P25774); enzyme activity, inhibitor, fluorescence; pH 5.5).
With `CN1C(CCCc2ccccc2)CCC1CCCc1ccccc1` (centres unmarked) the Ki was 120 nM (Slc18a2; transporter uptake, inhibitor, radiometric).
For `Cc1cc2nc3n(c2cc1C)C(C)(C)NC(N)=N3`, the Ki was 2450 nM (Bifunctional dihydrofolate reductase-thymidylate synthase (Leishmania major, UniProt P07382); enzyme activity, competitive inhibitor; together with: dihydrofolate 60 µM, NADPH 100 µM).
The Ki of `CC(=O)N[C@@H](Cc1ccc(O)cc1)C(=O)N[C@@H](CCCNC(=N)NC(=O)NCCCCN)C(=O)N[C@@H](CC(C)C)C(=O)N[C@@H](CCCNC(=N)N)C(=O)N[C@@H](Cc1ccc(O)cc1)C(N)=O` is reported as 19.5 nM (NPY4R; ligand displacement, radioligand).
For `CC(C)C[C@@H](NC(=O)[C@H]1CCCN1C(=O)[C@H]1CCCN1C(=O)[C@@H](CCCNC(=N)N)NC(=O)[C@@H](CCCNC(=N)N)NC(=O)[C@@H](CCCNC(=N)N)NC(=O)[C@@H](CCC(N)=O)NC(=O)[C@@H](CCCNC(=N)N)NC(=O)[C@@H](CCCNC(=N)N)NC(=O)[C@@H](CCCCN)NC(=O)[C@@H](CCCCN)NC(=O)[C@@H](CCCNC(=N)N)NC(=O)CNC(=O)[C@H](N)Cc1ccc(O)cc1)C(=O)N[C@H](CCCNC(=N)N)C(=O)N[C@H](CCCCN)C(=O)N[C@H](CCCCN)C(=O)N[C@H](CCCCN)C(=O)N[C@H](CCCCN)C(=O)N[C@H](CCCCN)C(=O)N[C@H](Cc1c[nH]cn1)C(N)=O`, the Ki was 12000 ± 3300 nM (PRKACA (Homo sapiens, UniProt P17612)).
The Ki of `N=C(N)NCCC[C@H](NC(=O)[C@@H]1CCCN1C(=O)[C@@H]1CSSCCC(=O)N[C@]2(CC[C@@H](c3ccccc3)CC2)C(=O)N[C@@H](Cc2ccccc2)C(=O)N[C@@H](CCC(N)=O)C(=O)N[C@@H](CC(N)=O)C(=O)N1)C(=O)NCC(N)=O` is reported as 5.4 nM (OXTR; ligand displacement, radioligand; cell membranes).
`CC(C)C[C@H](NC(=O)[C@H](CCCNC(=N)N)NC(=O)[C@@H](NC(=O)[C@H](CC(=O)O)NC(=O)[C@H](CCC(N)=O)NC(=O)[C@@H](NC(=O)[C@@H](NC(=O)[C@H](CCCNC(=N)N)NC(=O)[C@H](CO)NC(=O)[C@@H](N)CO)[C@@H](C)O)C(C)C)[C@@H](C)O)C(=O)O` has a Ki of 2200 ± 1000 nM (Na(+)/H(+) exchange regulatory cofactor NHE-RF1, PDZ1 domain (NHERF1, Homo sapiens, UniProt O14745)).
